Published values pooled from the literature.
Compare with care: the assays were run in different laboratories. ± marks the error that the study gave.
rep nsp14 N7-methyltransferase: Replicase polyprotein 1ab, nsp14 N7-methyltransferase (rep, Severe acute respiratory syndrome coronavirus 2, UniProt P0DTD1)
rep main protease: Replicase polyprotein 1ab, main protease (rep, Severe acute respiratory syndrome coronavirus 2, UniProt P0DTD1)

| SMILES | target or system | assay | test system | conditions | scale | endpoint | value |
| --- | --- | --- | --- | --- | --- | --- | --- |
| Oc1ccc2ccccc2c1SSc1c(O)ccc2ccccc12 | rep nsp14 N7-methyltransferase | N7-methyltransferase activity, inhibitor, Py-FLINT | – | – | – | Hill slope | 0.91 ± 0.11 |
| C=CS(=O)(=O)N(c1ccc(C(C)(C)C)cc1)C(C(=O)NCCc1cccc(Cl)c1)c1cccnc1 (centres unmarked) | rep main protease | inhibitor, ITC, irreversible model | – | 16.7 µM | – | kon | 6100 ± 900 M⁻¹ s⁻¹ |
| CC(C)CN(C[C@@H](O)[C@H](Cc1ccccc1)NC(=O)O[C@H]1CO[C@H]2OCC[C@H]21)S(=O)(=O)c1ccc(N)cc1.CCO | rep main protease | reporter gene (Gaussia luciferase), inhibitor | – | 20 µM | – | inhibition | 0.32% |
| Cc1cc(C(=O)N2CCC3(CC2)CN(C(=O)C[C@@H]2CC[C@H](O)C2)Cc2ccccc2O3)n[nH]1 | rep main protease | enzyme activity, inhibitor | – | 5 µM, run 1 | – | inhibition | 10.9% |
| Nc1ccn([C@@H]2O[C@H](COP(=O)(O)OP(=O)(O)OP(=O)(O)O)[C@@H](O)[C@H]2O)c(=O)n1 | Replicase polyprotein 1ab, nsp12 with nsp7/nsp8 (rep, Severe acute respiratory syndrome coronavirus 2, UniProt P0DTD1) | substrate | – | templating base G | – | kcat | 600 s⁻¹ |
| O=C(c1cccc(-c2n[nH]c(=O)[nH]2)c1)N1CCO[C@H](c2cn(-c3cccnc3)nn2)C1 | rep main protease | enzyme activity, inhibitor | – | 5 µM, mean of runs | – | inhibition | 10.3% |
| COc1ccc(-c2csc(C3=C(O)CN(/N=C/c4c[nH]c5ccccc45)C3=N)n2)cc1 | rep nsp14 N7-methyltransferase | N7-methyltransferase activity, inhibitor, Py-FLINT | – | – | – | Hill slope | 1.16 ± 0.09 |
| O=C(Oc1cncc(Cl)c1)c1cc2cc(Cl)ccc2[nH]1 | rep main protease | inhibitor, biochemical | – | – | – | kinact/Ki | 29100 M⁻¹ s⁻¹ |
| O=C1NCc2c1cccc2C(=O)N[C@H](CNC(=O)c1ccnc2[nH]ncc12)c1ccccc1 | rep main protease | enzyme activity | – | 5 µM, mean of runs | – | inhibition | 10.2% |
| COc1cc(O)cc(OC)c1 | rep main protease | reporter gene (Gaussia luciferase), inhibitor | – | 20 µM | – | inhibition | 3.11% |
| O=c1c(O)c(-c2ccc(O)cc2)oc2c(O)c(O)cc(O)c12 | rep main protease | covalent modification | – | 20 µM, protein 10 µM, molar ratio 1:2 | – | modification | 5.1% |
| O=C(N[C@@H](CNC(=O)[C@H]1CC12CC2)c1ccc2ccccc2c1)c1cncc2ccccc12 | rep main protease | enzyme activity, inhibitor | – | 5 µM, run 2 | – | inhibition | 18% |
| CC(Oc1ccccc1)C(=O)NCc1ccccn1 (centres unmarked) | Replicase polyprotein 1ab, nsp13 helicase (rep, Severe acute respiratory syndrome coronavirus 2, UniProt P0DTD1) | binding, affinity selection mass spectrometry | – | – | baseline: other proteins in batch | fold enrichment | 0.777 |
| CC(C)=CCc1c(O)cc(O)c2c(=O)c(-c3ccc(O)cc3)coc12 | rep main protease | reporter gene (mKate2), inhibitor | – | 20 µM | – | inhibition | 0.198% |
| CC[C@H](C)[C@H](NC(=O)[C@H](CC(C)C)NC(=O)[C@H](Cc1c[nH]c2ccccc12)NC(=O)[C@H](CCC(N)=O)NC(=O)[C@@H](NC(=O)[C@H](Cc1ccccc1)NC(=O)[C@H](C)NC(=O)[C@H](CCCCNC(=O)COCCOCCNC(=O)COCCOCCNC(=O)CC[C@H](NC(=O)CCCCCCCCCCCCCCCCCCC(=O)O)C(=O)O)NC(=O)[C@H](CCC(N)=O)NC(=O)[C@H](C)NC(=O)[C@@H](NC(=O)[C@H](CCCCN)NC(=O)[C@H](CC(=O)O)NC(=O)[C@H](CC(C)C)NC(=O)C(C)(C)NC(=O)[C@@H](NC(=O)[C@H](CO)NC(=O)[C@H](Cc1ccc(O)cc1)NC(=O)[C@H](CC(=O)O)NC(=O)[C@H](CO)NC(=O)[C@@H](NC(=O)[C@H](Cc1ccccc1)NC(=O)[C@@H](NC(=O)CNC(=O)[C@H](CCC(=O)O)NC(=O)C(C)(C)NC(=O)[C@@H](N)Cc1ccc(O)cc1)[C@@H](C)O)[C@@H](C)O)[C@@H](C)CC)[C@@H](C)CC)C(C)C)C(=O)N[C@@H](C)C(=O)NCC(=O)NCC(=O)N1CCC[C@H]1C(=O)N[C@@H](CO)C(=O)N[C@@H](CO)C(=O)NCC(=O)N[C@@H](C)C(=O)N1CCC[C@H]1C(=O)N1CCC[C@H]1C(=O)N1CCC[C@H]1C(=O)N[C@@H](CO)C(N)=O | – | – | human, plasma | 4.5 mg, day 22, multiple ascending dose, geometric mean | – | half-life | 132 h |
| CCc1cc(C(=O)N2CC[C@@H]([C@@H]3CCCN3C(=O)c3ccc4oc(N)nc4c3)C2)cc(=O)[nH]1 | rep main protease | enzyme activity, inhibitor | – | 5 µM | – | inhibition | 14% |
| CCOC(=O)CN[C@@H](C(=O)N1CC[C@H]1C(=O)NCc1ccc(/C(N)=N\O)cc1)C1CCCCC1 | rep main protease | reporter gene (mKate2), inhibitor | – | 20 µM | – | inhibition | -0.678% |

A few entries again:
| SMILES | target or system | assay | test system | conditions | scale | endpoint | value |
| --- | --- | --- | --- | --- | --- | --- | --- |
| COc1cc(O)cc(OC)c1 | rep main protease | reporter gene (Gaussia luciferase), inhibitor | – | 20 µM | – | inhibition | 3.11% |
| O=c1c(O)c(-c2ccc(O)cc2)oc2c(O)c(O)cc(O)c12 | rep main protease | covalent modification | – | 20 µM, protein 10 µM, molar ratio 1:2 | – | modification | 5.1% |
| O=C(N[C@@H](CNC(=O)[C@H]1CC12CC2)c1ccc2ccccc2c1)c1cncc2ccccc12 | rep main protease | enzyme activity, inhibitor | – | 5 µM, run 2 | – | inhibition | 18% |
